# Results pooled from the literature.
# Numbered parts are unrelated; each lists some results of a single study.

# Sample 1
# Target: RNA binding protein fox-1 homolog 2, RRM domain, GST-SBP tag (RBFOX2, Homo sapiens, UniProt O43251-10, residues 100-194)
# Method: RNA Bind-n-Seq
# Molecule type: RNA
# Sample: in vitro
# Concentration: 365 nM
# Setting: natural RNA segment, single round, ends assumed
# Baseline: no-protein control
# Reading: higher = stronger binding
# Shared flanks, not repeated: GGGAGUUCUACAGUCCGACGAUC … UGGAAUUCUCGGGUGCCAA
# Residues (chain): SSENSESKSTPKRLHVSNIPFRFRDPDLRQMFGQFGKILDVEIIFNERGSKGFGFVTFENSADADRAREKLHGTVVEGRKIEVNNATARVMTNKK
Oligonucleotide,RBNS enrichment (R)
UUCUGCCCUGCCAGCUGCAGCCUGGUUGGCAGCAUCUGCUCCAUCGGGGCAGGGGGUAUGCAGAGCUUGUGGUGGGGCAGGAACGGUGGAGGCAGAGGUGACAGUUCCCA,0.996
GUCUCCUUGACUUGUACCGCCUUCUCCUCUGUCCAGGAGGCCGGGAUCAGGCUGUUGCCAUGGAAGUUCAGGGCCAUAGACUGCCCCACUUAAACUCUUGUCAGUCUGGG,0.31
CGGACAGGUCCCGCAGCGCGUCCCCGUAGACCCGUCCCAGACACGUCUUUUCAUUCCAGUCCAGUUCAGGCUGCCGUGCACUUUGUCGGAUAUAAAAUAAACCACGGGCC,0.465
ACAAUCUGGACUACCCCAAGAUGGCACCCAAGUGUUUGGCUUCUGGCUACCUAAGGUUAACAUGUCACUAGAGUAUUUUUAUGAGAGACAAACAUUAUAAAAAUCUGAUG,0.442
CUAUAUCCCAUGUAAGGGAUCUGGGGAGGAGGCAUGUGUCUACAACCAUACCUUUUUGCACUAUGGGCACUAACCACCCUGAAACUUCCUGCGGUAGCUCCCUCCCUUCA,0.687
CUGUUGCUAGCCACGUGGGAAGCUCAUCUUUCCCAGCAUCUACCCUGCUCUGAAAAUAGGUGCCCAGCACCCCACCGCUGCCUGCACAUGCUUCUUAGCGCUGACUUCCA,0.403
AGAGAUUUGAUCUCAUGCGAGUCAUCAAUAGGACAAAAAAGUUGUGGUUUGGGGAGGUCUGUUUGUUACAUAAAAAGGACCUUUCGGUGUAAGAAAUUGCCGUUUUUACC,0.466
ACAUGGACGCAACCUCAACCCAGCGCAGUUACAACUUCACUAUCAGCGGAAGGGGAGAAAAACCGAUUCAAAUCAACUUGUACAUGGAAACAGCAAGCAUUAUGGUCAAA,0.343
AAAAAAGAAAAGGGUUUCCUAUCUGGUAUUAUAUAUGUCAAAUAAAUGUAUAAAGUAACACCCAAAUGUUAUUAGAAACUAGUCUUUUAGUAUUUGUAAUUUUCAACUCU,0.443
AAAUUCAGUGAGGCUAAAGGGAUACUUGAAUGUUAUUUUUUUUCUCCUAAGAAAAUGGGAGGCUACAUGCACUGGAUAUGUCCUUGGGAAAAUCUUUGGGGAACAAACUU,1.1
UCUUCUUUGACUUUGUGCUUGCUCUUUAAAGUGUCCUAAGAAAAUUAAUUUUUUCAGGUAUUUUUCUAUUUAGUGUUGCAGCCAAAGAGUAUUUAAAUUAAGUCUUUGCU,0.464
UUGAUCAAACAAGUGUCUUUUACUUAAGAAGAAACUUGGUAAUCAUUGUGGCACCCACAGCAAGCAGUUGCCUUACCAGUGAAAAAGGUGCACUGAGGUAACAUCUAAAA,0.891

# Sample 2
# Target: Sal-like protein 4, full length isoform A (SALL4, Homo sapiens, UniProt Q9UJQ4, residues 1-1053)
# Sequence of UniProt Q9UJQ4 (whole entry, looked up): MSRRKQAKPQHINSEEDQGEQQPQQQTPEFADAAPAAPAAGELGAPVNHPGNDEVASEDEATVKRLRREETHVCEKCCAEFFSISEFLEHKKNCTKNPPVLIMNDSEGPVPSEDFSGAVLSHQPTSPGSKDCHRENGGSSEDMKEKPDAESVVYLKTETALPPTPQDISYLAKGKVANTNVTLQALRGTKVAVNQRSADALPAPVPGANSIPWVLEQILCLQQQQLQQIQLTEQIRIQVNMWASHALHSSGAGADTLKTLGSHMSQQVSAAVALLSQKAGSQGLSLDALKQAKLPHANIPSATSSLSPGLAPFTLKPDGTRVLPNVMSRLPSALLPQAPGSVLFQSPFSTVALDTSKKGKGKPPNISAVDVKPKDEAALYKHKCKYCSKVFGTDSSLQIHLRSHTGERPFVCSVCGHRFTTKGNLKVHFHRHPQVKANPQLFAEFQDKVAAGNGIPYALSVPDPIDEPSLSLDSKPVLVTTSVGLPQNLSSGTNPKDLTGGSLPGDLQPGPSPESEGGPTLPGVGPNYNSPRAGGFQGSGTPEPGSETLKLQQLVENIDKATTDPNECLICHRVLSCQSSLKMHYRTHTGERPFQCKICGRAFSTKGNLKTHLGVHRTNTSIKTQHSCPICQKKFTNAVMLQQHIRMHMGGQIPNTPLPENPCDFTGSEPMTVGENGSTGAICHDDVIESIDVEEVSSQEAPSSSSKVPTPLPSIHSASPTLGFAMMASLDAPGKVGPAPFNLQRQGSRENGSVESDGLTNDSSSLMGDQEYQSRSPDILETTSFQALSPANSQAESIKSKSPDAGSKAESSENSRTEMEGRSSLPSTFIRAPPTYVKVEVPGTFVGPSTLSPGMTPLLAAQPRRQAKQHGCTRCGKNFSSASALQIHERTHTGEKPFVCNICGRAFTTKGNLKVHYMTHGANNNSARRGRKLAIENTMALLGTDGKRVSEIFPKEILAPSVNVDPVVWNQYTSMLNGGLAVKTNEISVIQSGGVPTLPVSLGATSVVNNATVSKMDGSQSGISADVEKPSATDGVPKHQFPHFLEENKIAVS
# Method: universal PBM
# Molecule type: double-stranded DNA, one strand shown
# Sample: in vitro
# Concentration: 600 nM
# Setting: 8-mer, flanks averaged, mean of replicates
# Reading: higher = stronger binding
Oligonucleotide,E-score
CGGAAGAA,0.0332
AGTCCAGG,-0.228
CACGGGAC,-0.236
GAATCCTC,-0.179
ACTACGGA,-0.0782
CCGACGCG,-0.343
GGCTCGCA,-0.118
CGATGCCA,-0.176
AAACGGGC,-0.134
GGCGTGCA,-0.215
GTCGAATA,0.21
GATATGGA,0.312
TAAACCGA,0.129
CTCGAATA,0.0232
GAAAAACC,0.0557
GATATCGC,0.188
AAAAAGGT,0.051
CAGTCGGG,-0.228
CAGGCCAG,-0.257
GATAGACA,0.0844
ATGGTTCG,0.00704
ACTGTGCC,-0.0934

# Sample 3
# Target: Ras GTPase-activating protein-binding protein 1, full length (G3BP1, Homo sapiens, UniProt Q13283)
# Sequence of UniProt Q13283 (whole entry, looked up): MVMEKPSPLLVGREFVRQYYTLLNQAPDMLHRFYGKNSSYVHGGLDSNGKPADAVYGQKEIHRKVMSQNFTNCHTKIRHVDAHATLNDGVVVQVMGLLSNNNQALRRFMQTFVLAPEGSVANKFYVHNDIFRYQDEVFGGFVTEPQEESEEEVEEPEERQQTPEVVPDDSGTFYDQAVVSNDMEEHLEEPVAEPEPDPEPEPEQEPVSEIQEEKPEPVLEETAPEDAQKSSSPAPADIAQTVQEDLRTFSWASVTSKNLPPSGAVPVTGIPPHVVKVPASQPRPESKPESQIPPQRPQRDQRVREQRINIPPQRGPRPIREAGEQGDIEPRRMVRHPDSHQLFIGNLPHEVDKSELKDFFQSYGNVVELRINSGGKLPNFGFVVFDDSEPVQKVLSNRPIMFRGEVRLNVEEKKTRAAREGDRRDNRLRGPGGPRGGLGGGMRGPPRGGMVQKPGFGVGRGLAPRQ
# Method: RNA Bind-n-Seq
# Molecule type: RNA
# Sample: in vitro
# Concentration: 200 nM
# Setting: whole 134-nt RNA, ends assumed
# With: 150 mM LiCl
# Baseline: input library
# Reading: higher = stronger binding
# All molecules: 7-deaza-guanosine replaces G
# Shared flanks, not repeated: GGGAGUUCUACAGUCCGACGAUC … UGGAAUUCUCGGGUGUCAAGG
Oligonucleotide,log2 enrichment
ACCAUGCAGGUGGGCAUCUUUGGGAAGUGGGGCAAGGGGGGGAUAGGGAGUGGGGUAACACUUUGGGAACAGGUGGUCCCAGGUCGUUUC,0.384
UCAAGUCCUGUGCUACACAUCGUAUGUACCGAAUCGGGGUGGGGUGGGGAGGGGAAAGUAUUAUGUUACGCCGUUCGGAUCUGCACUUCC,-0.521
UCAAGUCCUGUGCUACACAUCGUAUGUACCGAAUCGGGAAAGGGAAAGGGAAAGGAAAGUAUUAUGUUACGCCGUUCGGAUCUGCACUUC,-0.698
UUUUCAAAAUAAGGAGCUUCCCAGACCUGUGUUAGAAGGGCAGCAGUCAGAGAGGACCCCAAAUAAUCGCCCUGAUGCCCCUAAGGAGAA,-0.31
CUCAAGUCCUGUGCUACACAUCGUAUGUACCGAAUCGGUGGAAAAAAAGGUGGAAAGUAUUAUGUUACGCCGUUCGGAUCUGCACUUCCA,0.345
AGAUGAACAAGAGAACUGGGCAACCCAUGAUCCACAUCUACCUGGACAAGGAAACAGGAAAGCCCAAAGGCGAUGCCACAGUGUCCUAUG,-0.841
UGGCCCUGGGGGCAUGCGGGGAGGAAGAGGUGGCCUCAUGGAUCGUGGUGGUCCCGGUGGAAUGUUCAGAGGUGGCCGUGGUGGAGACAG,-0.0545
GCAGGAAGUAAAAACAAAUGGAAAUGCUUCGGAUAGUGGCCGGGGUGGGGGUUGCUAAGGAAAGGGUGGGAUGGGAGUGGGUAAAGAGUU,0.238
UGGGACGUGGAUUUUGUUUAUUUUUUUAGCUCAUUUCCAGGGGUGGGAAUUUUUUUUUAAUAUGUGUCAUGAAUAAAGUUGUUUUUGAAA,0.156
CCUGUGCUACACAUCGUAUGUACCGAAUCGGGGAAAAAAAGGGGUUUGGGGUUUUUGGGGAAAGUAUUAUGUUACGCCGUUCGGAUCUGC,-0.0657
UUCCUCAAGUCCUGUGCUACACAUCGUAUGUACCGAAUCGGCGGCGGGCGGAAAGUAUUAUGUUACGCCGUUCGGAUCUGCACUUCCAGC,0.97

# Sample 4
# Target: Prothrombin, mature alpha-thrombin (F2, Homo sapiens, UniProt P00734)
# Method: aptamer microarray, sandwich
# Molecule type: DNA with 2'F-ANA
# Sample: in vitro
# Concentration: 200 nM
# Setting: whole 15-mer aptamer, many near background
# With: Cy3 exosite-II aptamer, 400 nM
# Reading: higher = stronger binding
# Oligonucleotide: GGTTGGTGTGGTTGG
Modification,mean fluorescence intensity [a.u.]
2'F-ANA at 1 4 7 8 9 12 13,193
2'F-ANA at 1 3 4 5 7 8 9 10 11 12 15,52.1
2'F-ANA at 1 2 3 4 5 9 13,47.1
2'F-ANA at 2 6 7 8 10 11 14 15,80.5
2'F-ANA at 1 5 6 7 8 9 11 13,90.4
2'F-ANA at 1 3 6 9 10 11 12 13 14 15,59.3
2'F-ANA at 2 6 8 11 12 13 15,467
2'F-ANA at 1 5 6 7 8 10 13 15,45.4
2'F-ANA at 2 6 7 8 9 10 11 14 15,84
2'F-ANA at 2 3 4 5 8 9 10 14,49.9
2'F-ANA at 1 2 3 5 9 10 11 13 14,46.8
2'F-ANA at 2 3 5 6 7 9 11 12 14,52.9
2'F-ANA at 5 6 8 10 11 12 13,53
2'F-ANA at 2 8 9 10 13 15,105
2'F-ANA at 1 3 4 5 6 8 11 12 13 15,71.3
2'F-ANA at 2 3 4 5 9 10 11 12 13,52.4
2'F-ANA at 3 5 10 12 14,50.9
2'F-ANA at 1 4 7 8 10 11 12 14 15,83.3
2'F-ANA at 2 5 6 7 9 10 13 15,75.2
2'F-ANA at 1 3 5 8 13 14,55.2
2'F-ANA at 1 2 4 5 7 8 9 11 12 15,88.9
2'F-ANA at 1 2 3 4 6 7 8 9 10 12 13,67.8
2'F-ANA at 1 2 3 5 9 10 11 12 13 14 15,61.7
2'F-ANA at 1 2 5 6 9 10 11 13,72.1
2'F-ANA at 1 2 7 9 10 11 13 14,45.9

# Sample 5
# Target: Histone acetyltransferase KAT6A, winged helix 2, GST fusion (KAT6A, Homo sapiens, UniProt Q92794, residues 85-181)
# Method: protein binding microarray
# Molecule type: double-stranded DNA, one strand shown
# Sample: in vitro
# Concentration: not given
# Setting: 8-mer, flanks averaged, mean of 2 arrays, mostly near background
# Baseline: not given
# Reading: higher = stronger binding
# Residues (chain): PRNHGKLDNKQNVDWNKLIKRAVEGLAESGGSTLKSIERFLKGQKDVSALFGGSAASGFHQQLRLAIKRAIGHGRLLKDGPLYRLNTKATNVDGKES
Oligonucleotide,E-score
CATTAATA,0.108
CACTCAAG,0.0131
AAGGATCC,-0.145
CTTATAGC,-0.0345
AACGGAAA,-0.0852
CTTCGCCC,0.00847
AAGTGGAG,0.0427
TAGCACAA,0.0792
CCAGCCGG,0.168
ATTCCTTC,0.0875
AATTCCAC,0.182
ACTTTTAA,0.00219
GCTGATAA,0.142
GGTGGTTA,-0.0172
ACGTTATA,-0.078
CCCCGCGC,0.233
GAATCTGC,0.0433
CAATGGCC,-0.278
CGCCCGGC,0.283
ATTGTAAG,-0.0341
CCGCAAGA,0.249
ACCTGTCC,-0.101
ATGTCGTG,0.111
TGTTCGAA,0.168
AGGGTATC,-0.072

# Repeated from above (sample 5):
Oligonucleotide,E-score
AAGGATCC,-0.145
CTTATAGC,-0.0345
AACGGAAA,-0.0852
CTTCGCCC,0.00847
AAGTGGAG,0.0427
TAGCACAA,0.0792
CCAGCCGG,0.168
ATTCCTTC,0.0875
AATTCCAC,0.182
ACTTTTAA,0.00219
